Published values from different studies.
Every numbered part comes from another study and shows a few of its results, in no order. Values joined by “and” are separate records of one study, mostly repeats; a detail may differ.

Sample 1 — method: competition protein-binding microarray; molecule type: double-stranded DNA, one strand shown; sample: in vitro; concentration: 2 µM; together with: Pho4 competitor, 0.05 µM; reading: higher = stronger binding; endpoint: fluorescence intensity; shared flanks, not repeated: … GTCTTGATTCGCTTGACGCTGCTG
Target: Centromere-binding protein 1, full length, His-tagged (CBF1, Saccharomyces cerevisiae, UniProt P17106, residues 1-351)
Chain of UniProt P17106 (whole entry, looked up): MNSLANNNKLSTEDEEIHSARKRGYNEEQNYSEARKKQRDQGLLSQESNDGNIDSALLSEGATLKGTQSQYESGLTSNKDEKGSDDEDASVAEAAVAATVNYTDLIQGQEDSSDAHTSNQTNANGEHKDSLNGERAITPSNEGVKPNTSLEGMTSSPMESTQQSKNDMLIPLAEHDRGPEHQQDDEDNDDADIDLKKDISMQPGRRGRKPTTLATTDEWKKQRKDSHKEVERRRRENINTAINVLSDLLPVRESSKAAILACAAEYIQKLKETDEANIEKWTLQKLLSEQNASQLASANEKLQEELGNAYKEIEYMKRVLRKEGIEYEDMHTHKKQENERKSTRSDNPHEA
Notes: whole 60-bp probe, lowest competitor level
Oligonucleotide = TGCGCAACAACTTTTCACGTGAGCTTATGTCTAGAA; result = 1280 a.u.
Oligonucleotide = AATGTAGCTCGTAAGCGCCTGATCCAGTAAGCCAAA; result = 72.1 a.u.
Oligonucleotide = AAATAAAGAAATCGGCACGCTGGACGTAATGAGGTT; result = 75.8 a.u.
Oligonucleotide = TGCTTTTTTCCAAAACACGTGGCAATGACTTTTGAA; result = 2530 a.u.
Oligonucleotide = CCCAAAGGGATGGGATACATGACAACAACAAGCAAG; result = 70.2 a.u.
Oligonucleotide = CCAAAGCAGATTTGTCACCTGGAATAGAGTTTTTGT; result = 79 a.u.
Oligonucleotide = TGCGCAACAACTTGTACGGTGGGTGTATGTCTAGAA; result = 62.7 a.u.
Oligonucleotide = GACAAAAGAAGGTTAAACGTGGCAATGACAAGAGCC; result = 92.2 a.u.

Sample 2 — method: CellTiter-Glo; concentration: 1 µM; reference: DMSO; endpoint: viability
Cell line: normal-adjacent epithelium patient-derived organoids sample E
Structure (SMILES) = O=C(Nc1cccnn1)N1CC(CC=Cc2cncc(Oc3ccc(C(F)(F)F)cn3)n2)C1; result = 108% and 103%
Structure (SMILES) = COCc1nc2cnc3cc(-c4c(C)noc4C)c(OC[C@H]4CCNC4)cc3c2n1[C@H](C)c1ccccc1; result = 80.3%
Structure (SMILES) = CC(=O)NCC(=O)N1[C@@H]2CC[C@H]1c1ccc(Nc3ncc(C(F)(F)F)c(NC4CCC4)n3)cc12; result = 23.7% and 28.6%
Structure (SMILES) = CCOc1cn(-c2ccc(F)cc2C)nc1C(=O)Nc1ccc(Oc2ccnc3cc(OC)c(OC)cc23)c(F)c1; result = 65.3% and 80.2%
Structure (SMILES) = CN(C)C(=O)Cn1cc(-c2ccc(-c3nnc4ccccn34)cc2)cn1; result = 99.7% and 86.6%
Structure (SMILES) = CCC(=NO)C(C)=Cc1ccc(F)c(C)c1; result = 114% and 104%

Sample 3 — observed: enzyme activity; action: inhibitor; concentration: 0.5 µM; reference: control; endpoint: remaining activity
Target: cGMP-dependent protein kinase 2 (PRKG2, Homo sapiens, UniProt Q13237)
Target sequence (Q13237 1-762): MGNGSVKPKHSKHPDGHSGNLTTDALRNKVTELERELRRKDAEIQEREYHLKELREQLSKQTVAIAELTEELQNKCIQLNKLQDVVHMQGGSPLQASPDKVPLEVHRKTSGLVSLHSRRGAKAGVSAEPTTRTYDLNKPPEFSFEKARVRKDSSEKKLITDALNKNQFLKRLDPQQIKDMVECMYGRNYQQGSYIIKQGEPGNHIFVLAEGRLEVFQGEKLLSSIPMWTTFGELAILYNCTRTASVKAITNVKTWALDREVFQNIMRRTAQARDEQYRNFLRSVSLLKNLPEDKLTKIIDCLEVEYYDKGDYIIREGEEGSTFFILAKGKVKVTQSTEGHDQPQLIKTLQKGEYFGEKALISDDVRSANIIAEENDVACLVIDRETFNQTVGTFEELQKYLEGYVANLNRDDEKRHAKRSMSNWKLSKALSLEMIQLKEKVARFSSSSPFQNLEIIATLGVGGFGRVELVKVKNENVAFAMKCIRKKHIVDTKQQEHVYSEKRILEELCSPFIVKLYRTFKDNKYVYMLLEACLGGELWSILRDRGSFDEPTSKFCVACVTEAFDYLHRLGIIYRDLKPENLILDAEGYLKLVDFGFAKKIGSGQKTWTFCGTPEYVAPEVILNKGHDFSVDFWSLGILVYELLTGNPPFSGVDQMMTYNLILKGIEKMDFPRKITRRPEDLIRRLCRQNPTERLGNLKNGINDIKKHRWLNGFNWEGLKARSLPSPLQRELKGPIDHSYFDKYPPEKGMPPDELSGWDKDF
SMILES = Nc1ccc2ncnc(NCCc3ccc(Oc4ccccc4)cc3)c2c1; result = 105%
SMILES = COc1cc2nccc(Oc3ccc(NC(=S)NC(=O)c4ccccc4C)cc3)c2cc1OC; result = 90.5%
SMILES = Cc1nc(-c2ccccc2)c(-c2ccncc2)o1; result = 85%
SMILES = CC(C)[C@H](CO)Nc1nc(Nc2cc(N)cc(Cl)c2)c2ncn(C(C)C)c2n1; result = 88.8%
SMILES = COc1ccc(OC)c2c(=S)c3ccccc3[nH]c12; result = 62.2%
SMILES = Cc1ccc(Nc2nccc(N(C)c3ccc4c(C)n(C)nc4c3)n2)cc1S(N)(=O)=O; result = 96%
SMILES = COc1ccc(CNC(=O)Nc2ncc([N+](=O)[O-])s2)cc1; result = 100%
SMILES = CCOC(=O)c1c(C)[nH]c(/C=C2\C(=O)Nc3ccccc32)c1C; result = 78.9%
SMILES = O=C1NC(=O)C(c2cn(CCCO)c3ncccc23)=C1c1cnccn1; result = 118%
SMILES = CN(C)c1ccc(C=C2C(=O)Nc3ccccc32)cc1; result = 105%
SMILES = O=C(CCCc1ccc(-c2ccccc2F)cc1)Nc1ccc(O)cc1; result = 102%

Sample 4 — method: protein-binding microarray; molecule type: hairpin DNA; sample: in vitro; concentration: not given; reference: not given; reading: higher = stronger binding; endpoint: median fluorescence
Target: Microphthalmia-associated transcription factor, full length (MITF, Homo sapiens, UniProt O75030-10, residues 1-413)
Notes: whole hairpin DNA, median over replicate spots
Oligonucleotide = CACTTAGCACGTGCTTTTGGTCCTCCAAAAGCACGTGCTAAGTGACACTC; result = 23200 a.u.
Oligonucleotide = GAGGCCCGGCACGTGCTGCCTCCTGGCAGCACGTGCCGGGCCTCACACTC (5mC at 37); result = 23200 a.u.
Oligonucleotide = CACTTACGACGTGATTTTGGTCCTCCAAAATCACGTCGTAAGTGACACTC (5mC at 37); result = 6080 a.u.
Oligonucleotide = CACTTAGCACCTGATTTTGGTCCTCCAAAATCAGGTGCTAAGTGACACTC (5mC at 11); result = 4470 a.u.
Oligonucleotide = GAGGCCTAGCCGGTGCTGCCTCCTGGCAGCACCGGCTAGGCCTCACACTC; result = 5530 a.u.
Oligonucleotide = CACTCAGCACGTGATTTTGGTCCTCCAAAATCACGTGCTGAGTGACACTC (5mC at 5); result = 26200 a.u.
Oligonucleotide = CACTTAGCGCGTGATTTTGGTCCTCCAAAATCACGCGCTAAGTGACACTC (5mC at 36); result = 19000 a.u.
Oligonucleotide = CACTTAGCACGTGATTTTGGTCCTCCAAAATCACGTGCTAAGTGACACTC (5mC at 10 34); result = 9520 a.u.

Repeated from above (sample 2):
Structure (SMILES) = CN(C)C(=O)Cn1cc(-c2ccc(-c3nnc4ccccn34)cc2)cn1; result = 99.7% and 86.6%
Structure (SMILES) = O=C(Nc1cccnn1)N1CC(CC=Cc2cncc(Oc3ccc(C(F)(F)F)cn3)n2)C1; result = 108% and 103%
